Published values collected from several papers.
Compare with care: the assays were run in different laboratories. Several values in a cell are separate wells, animals, samples, runs or records. ± marks the error that the study gave.
Target: Melanocyte-stimulating hormone receptor (Mc1r, Mus musculus, UniProt Q01727)
Chain of UniProt Q01727 (whole entry, looked up): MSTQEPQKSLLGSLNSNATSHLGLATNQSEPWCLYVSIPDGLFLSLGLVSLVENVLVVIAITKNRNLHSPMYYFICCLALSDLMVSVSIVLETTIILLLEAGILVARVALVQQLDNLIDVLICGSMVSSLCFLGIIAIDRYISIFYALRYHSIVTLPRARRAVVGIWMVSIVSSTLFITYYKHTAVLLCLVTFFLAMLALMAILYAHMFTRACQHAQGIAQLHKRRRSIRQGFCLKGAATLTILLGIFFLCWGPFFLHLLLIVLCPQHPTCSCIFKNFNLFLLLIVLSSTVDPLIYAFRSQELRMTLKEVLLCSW

`CCCC[C@H](NC(=O)CNC(=O)CNC(=O)CNC(=O)CNC(=O)CNC(=O)[C@H](CS)NC(C)=O)C(=O)N[C@H]1CC(=O)NCCCC[C@@H](C(N)=O)NC(=O)[C@H](Cc2c[nH]c3ccccc23)NC(=O)[C@H](CCCNC(=N)N)NC(=O)[C@@H](Cc2ccccc2)NC(=O)[C@H](Cc2c[nH]cn2)NC1=O` gave an IC50 of 1.2 nM (ligand displacement, radioligand).
For `C[C@H](NC(=O)[C@H](CC(N)=O)NC(=O)[C@H](Cc1c[nH]c2ccccc12)NC(=O)[C@H](CCCNC(=N)N)NC(=O)[C@@H](Cc1ccccc1)NC(=O)[C@H](Cc1c[nH]cn1)NC(=O)[C@H](CN=[N+]=[N-])NC(=O)[C@@H](N)Cc1ccc(O)cc1)C(=O)N[C@@H](Cc1ccccc1)C(=O)N[C@@H](CN=[N+]=[N-])C(=O)N[C@@H](Cc1ccc(O)cc1)C(N)=O`, the EC50 was 5 ± 0.24 nM (agonist).
`CCCC[C@H](NC(=O)CNC(=O)CNC(=O)CN1CCN(CC(=O)O)CCN(CC(=O)O)CC1)C(=O)N[C@H]1CC(=O)NCCCC[C@@H](C(N)=O)NC(=O)[C@H](Cc2c[nH]c3ccccc23)NC(=O)[C@H](CCCNC(=N)N)NC(=O)[C@@H](Cc2ccccc2)NC(=O)[C@H](Cc2c[nH]cn2)NC1=O` gave an IC50 of 0.9 nM (ligand displacement, radioligand).
`C[C@H](NC(=O)[C@H](CC(N)=O)NC(=O)[C@H](Cc1c[nH]c2ccccc12)NC(=O)[C@H](CCCNC(=N)N)NC(=O)[C@@H](Cc1ccccc1)NC(=O)[C@H](Cc1c[nH]cn1)NC(=O)[C@H](CCCN=[N+]=[N-])NC(=O)[C@@H](N)Cc1ccc(O)cc1)C(=O)N[C@@H](Cc1ccccc1)C(=O)N[C@@H](CCCN=[N+]=[N-])C(=O)N[C@@H](Cc1ccc(O)cc1)C(N)=O` gave an EC50 of 138 ± 18 nM (agonist).
For `CCCC[C@H](NC(=O)CNC(=O)CNC(=O)CNC(=O)c1ccc(NN)nc1)C(=O)N[C@H]1CC(=O)NCCCC[C@@H](C(N)=O)NC(=O)[C@H](Cc2c[nH]c3ccccc23)NC(=O)[C@H](CCCNC(=N)N)NC(=O)[C@@H](Cc2ccccc2)NC(=O)[C@H](Cc2c[nH]cn2)NC1=O`, the IC50 was 0.8 nM and 0.7 nM (ligand displacement, radioligand).
For `CCCC[C@H](NC(=O)CNC(=O)CNC(=O)CNC(=O)CNC(=O)CNC(=O)CS)C(=O)N[C@H]1CC(=O)NCCCC[C@@H](C(N)=O)NC(=O)[C@H](Cc2c[nH]c3ccccc23)NC(=O)[C@H](CCCNC(=N)N)NC(=O)[C@@H](Cc2ccccc2)NC(=O)[C@H](Cc2c[nH]cn2)NC1=O`, the IC50 was 1 nM (ligand displacement, radioligand).
`CC(C)[C@H](NC(=O)[C@@H]1CCCN1C(=O)[C@H](CCCNC(=N)N)NC(=O)[C@H](CS)NC(=O)[C@H](Cc1c[nH]c2ccccc12)NC(=O)[C@H](CCCNC(=N)N)NC(=O)[C@@H](Cc1ccccc1)NC(=O)[C@H](Cc1c[nH]cn1)NC(=O)[C@H](CCC(=O)O)NC(=O)[C@H](CS)NC(=O)[C@H](CS)NC(=O)CCCCCNC(=O)[C@@H]1CC(=O)N[C@@H](CCCNC(=N)N)C(=O)NCC(=O)N[C@@H](CC(=O)O)C(=O)N[C@H](Cc2ccc(O)cc2)C(=O)N1)C(N)=O` has an IC50 of 1.3 nM (ligand displacement, radioligand).
`CC(C)[C@H](NC(=O)[C@@H]1CCCN1C(=O)[C@H](CCCNC(=N)N)NC(=O)[C@H](CS)NC(=O)[C@H](Cc1c[nH]c2ccccc12)NC(=O)[C@H](CCCNC(=N)N)NC(=O)[C@@H](Cc1ccccc1)NC(=O)[C@H](Cc1c[nH]cn1)NC(=O)[C@H](CCC(=O)O)NC(=O)[C@H](CS)NC(=O)[C@H](CS)NC(=O)CNC(=O)[C@@H]1CC(=O)N[C@@H](CCCNC(=N)N)C(=O)NCC(=O)N[C@@H](CC(=O)O)C(=O)N[C@H](Cc2ccc(O)cc2)C(=O)N1)C(N)=O` gave an IC50 of 1.5 nM (ligand displacement, radioligand).

Repeated from above:
For `C[C@H](NC(=O)[C@H](CC(N)=O)NC(=O)[C@H](Cc1c[nH]c2ccccc12)NC(=O)[C@H](CCCNC(=N)N)NC(=O)[C@@H](Cc1ccccc1)NC(=O)[C@H](Cc1c[nH]cn1)NC(=O)[C@H](CN=[N+]=[N-])NC(=O)[C@@H](N)Cc1ccc(O)cc1)C(=O)N[C@@H](Cc1ccccc1)C(=O)N[C@@H](CN=[N+]=[N-])C(=O)N[C@@H](Cc1ccc(O)cc1)C(N)=O`, the EC50 was 5 ± 0.24 nM (agonist).
